Published values collected from several papers.
Each numbered part is a random draw from the data of one study; scales do not carry over between parts.

Study 1
Target: Calcium/calmodulin-dependent protein kinase type II subunit alpha (CAMK2A, Homo sapiens, UniProt Q9UQM7)
Chain of UniProt Q9UQM7 (whole entry, looked up): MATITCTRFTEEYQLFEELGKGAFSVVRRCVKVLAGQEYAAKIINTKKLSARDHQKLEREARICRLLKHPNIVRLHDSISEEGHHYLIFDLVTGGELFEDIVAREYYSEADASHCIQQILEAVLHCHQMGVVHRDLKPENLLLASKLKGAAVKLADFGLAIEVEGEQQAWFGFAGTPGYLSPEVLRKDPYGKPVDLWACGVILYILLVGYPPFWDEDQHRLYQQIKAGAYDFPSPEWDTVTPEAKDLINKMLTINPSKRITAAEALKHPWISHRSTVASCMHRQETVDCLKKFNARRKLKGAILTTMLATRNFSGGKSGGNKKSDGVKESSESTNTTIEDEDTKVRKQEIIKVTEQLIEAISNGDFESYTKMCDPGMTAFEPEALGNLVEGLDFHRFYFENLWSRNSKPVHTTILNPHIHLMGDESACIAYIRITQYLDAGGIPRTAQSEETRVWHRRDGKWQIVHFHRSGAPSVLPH
Observed: enzyme activity
Mode: inhibitor
Tested at: 10 µM
SMILES | inhibition [%]
CC1(C)C2=CCCC(C)(C)[C@]23CC[C@H]1C3 | -25
O=C(O)C1=C[C@@H](O)[C@@H](O)[C@H](O)C1 | 12
N#Cc1ccc(Oc2ccc3c(c2)COB3O)cc1 | -11
CCCCCCCCCCCC(=O)O | -25
O=C(Nc1ccccc1)c1ccccc1O | -2
C[C@@H](O)C(=O)O | -30
CCCCCCCCCCCCCCCCC(=O)OC | -18
OCc1ccc(Cl)cc1Cl | -5

Study 2
Host: human
Matrix: microsomes or S9
Tested at: 2 µM
Time: 0.5 h
Compound | remaining compound [%]
COc1cc(NC(=O)N2CCC(Cn3cncn3)CC2)ncn1 | > 100
c1cc(-c2ncnc3sccc23)c2cc[nH]c2n1 | 34
Clc1cccc(C(c2ccccc2)N2CCN(c3nn4nnnc4c4ccccc34)CC2)c1 (stereo not shown) | 89.9
CCc1ccccc1NC(=O)NCCNc1nc(C)cc(N2CCCCC2)n1 | 8.55
CCN(CC)c1ccc(-c2nnc(-c3ccc(N(CC)CC)cc3)o2)cc1 | 9.12
CCCNc1nc(C)cc(=O)n1Cc1ccc(-c2ccccc2-c2nnn[nH]2)cc1 | 2.33
Cc1cc(F)c(S(N)(=O)=O)c(NCCCOC(C)C)c1 | 16.5
O=C(NNc1nc2ccccc2s1)c1ccccc1F | 37.8

Study 3
Cell line: HaCaT
Tested at: 100 µM
Time: 18 h
Structure (SMILES) | viability [%]
OCCN1CCN(CCCN2c3ccccc3Sc3ccc(Cl)cc32)CC1 | 19.3
CCN(CC)CCOC(=O)C(c1ccccc1)c1ccccc1 | 89.3
N=C(N)c1ccc2cc(OC(=O)c3ccc(N=C(N)N)cc3)ccc2c1 | 118
Cc1cc(O)c2c(c1)C(=O)c1cccc(O)c1C2=O | 107
COc1ccccc1OCC(O)COC(N)=O (stereo not shown) | 91.9
CS(=O)(=O)c1ccc(C(=O)Nc2ccc(Cl)c(-c3ccccn3)c2)c(Cl)c1 | 73.4
O=C(O)CCc1nc2ccccc2[nH]1 | 114
COc1ccc2cc1Oc1ccc(cc1)C[C@H]1c3c(cc4c(c3Oc3cc5c(cc3OC)CCN(C)[C@@H]5C2)OCO4)CCN1C | 21.4

Single results of other studies
Compound | cell line | observed | method | tested at | together with | measurement | result
Cc1ccc(O)cc1Nc1ccnc2cc(-c3ccccn3)ccc12 | L929 | necroptosis protection | CCK-8 | 0.313 µM | TNF-α-induced | viability | 34.5%

Some of these lines once more (study 1):
SMILES | inhibition [%]
N#Cc1ccc(Oc2ccc3c(c2)COB3O)cc1 | -11
CCCCCCCCCCCC(=O)O | -25
O=C(Nc1ccccc1)c1ccccc1O | -2
CCCCCCCCCCCCCCCCC(=O)OC | -18
